Results gathered from unrelated publications.
Each numbered part is a random draw from the data of one study; scales do not carry over between parts. Positions count from the first letter of the parent shown.

Series 1 — technique: universal PBM; molecule type: double-stranded DNA, one strand shown; sample: in vitro; concentration: not given; direction: higher = stronger binding; measurement: E-score
Target: Sal-like protein 4, full length isoform B (SALL4, Homo sapiens, UniProt Q9UJQ4-2, residues 1-616)
Notes: 8-mer, flanks averaged, mean of replicates
Residues (chain): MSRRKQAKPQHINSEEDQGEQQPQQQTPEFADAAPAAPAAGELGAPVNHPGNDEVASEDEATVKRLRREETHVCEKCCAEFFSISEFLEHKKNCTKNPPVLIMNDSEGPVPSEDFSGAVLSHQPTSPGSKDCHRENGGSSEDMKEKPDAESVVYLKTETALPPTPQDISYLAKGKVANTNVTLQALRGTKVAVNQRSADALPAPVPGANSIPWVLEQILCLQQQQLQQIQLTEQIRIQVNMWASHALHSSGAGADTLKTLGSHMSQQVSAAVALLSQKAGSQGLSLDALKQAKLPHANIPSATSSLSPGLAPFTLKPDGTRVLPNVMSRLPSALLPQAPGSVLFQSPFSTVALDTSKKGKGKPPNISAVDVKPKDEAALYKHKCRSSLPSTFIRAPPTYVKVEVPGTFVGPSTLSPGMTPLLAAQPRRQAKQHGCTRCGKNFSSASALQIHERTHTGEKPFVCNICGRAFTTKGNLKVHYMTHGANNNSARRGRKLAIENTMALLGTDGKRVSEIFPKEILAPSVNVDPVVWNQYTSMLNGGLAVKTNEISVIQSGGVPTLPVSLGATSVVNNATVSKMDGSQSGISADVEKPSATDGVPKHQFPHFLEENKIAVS
CCCACTTA: 0.0944
CCGGTCAG: -0.298
ACATCGAA: 0.126
ATGTCAGA: 0.137
GCATAAGC: 0.0859
AGATTGAC: -0.0674
GCAATCGA: -0.105
CTGGGCAC: -0.338
GTATTTGA: 0.187
CAGAAAGA: 0.119
CACCTCAA: -0.11
ACGGGATG: -0.21
AGGTGGGC: -0.292
TAATCAGA: 0.24
GAGAAATC: 0.0675
CGTATCTA: -0.0102
TGTCATAA: 0.346
CACTGAGA: -0.121
CTTATTTC: 0.325
CACAGTAA: 0.149
GTCATGAA: 0.0665
ACATGAAC: 0.154
ACTTTCCC: -0.0568

Series 2 — technique: RNA Bind-n-Seq; molecule type: RNA; sample: in vitro; concentration: 365 nM; relative to: no-protein control; direction: higher = stronger binding; measurement: RBNS enrichment (R)
Target: RNA binding protein fox-1 homolog 2, RRM domain, GST-SBP tag (RBFOX2, Homo sapiens, UniProt O43251-10, residues 100-194)
Notes: natural RNA segment, single round, ends assumed
Constant ends, left off below: GGGAGUUCUACAGUCCGACGAUC … UGGAAUUCUCGGGUGCCAA
Construct (chain): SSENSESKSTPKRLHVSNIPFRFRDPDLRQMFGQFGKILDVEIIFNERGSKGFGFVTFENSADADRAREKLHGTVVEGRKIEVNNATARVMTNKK
AGAAAUUCCUAUCUACUUUAUUAAGCAGUAUUGAUCUGACUGUGGAAACAUCCUCUCACUUGCAUUCUUUUAACUUAAAACUAUUUAAGAACUGAUGUUCCGAUUAUUGU: 0.478
AUUUUGAUGAGAUAACCUUCAUCUCGUUACUGAAAUAUCUAACUUCAGCUAGAUAUGAGCUAUGCAAGGAGCCAUAGGAAUAGCUAUAUGUUGGAAUGGCUUUAAUGUUG: 1.62
CUCUGAAUCUCCCGACCUUGGUCCCCUGCCCAAGAGAGGGUAAGGAGGCUGGUGGGGGAUACGGUGGGUCCUUGGAGCAGGAGUGACAAAGGAGGAAAAGACCAAAAAUC: 0.361
UCCACCCAUCUCAGCCUCCCAAAGUGCUGGGAUUACAGGCGUGAGCCACCAUGCCCGGCCCAUAAGUACCGUUUUUGAGGUUCAGUCUUAAACAUUUGCUUUAAGAAAAC: 0.345
GAUCUUUUGCUAAUGCAGUUAGCAGUAUGUUUUGCAUGUAUGAAUUAAUAAAUCCUUGAAUCAUACACUGGUUAUGCUUGUGUUUUUGGAAUUUGACAAGCUCUUGGCGU: 3.32
UGUAAGUUGGUUUUCUUAUUUGUUGGUUUUUACGUGUGUAUAUGAGUGGUGGGUAUUGAUUAGGCCAUCAUUUCAAGAGAGUAGAUGCUAAGUUGGAUUUCGUGCUGCUG: 0.708
GCUGUUUGUAAUGCAGUCUUCCAUUCUGUGAGUCUUUGAUUCUCCAUGCUGGCUAGAAGUUGGCCACAACUUGAGCAAAACUGCCUCUCACACAGUGAGAUGCACUCAAA: 0.296
GUGGAUUCUAGCAAAAGAGCUGGAAAAAAGUCAGACUCUCCACAGACCCCCUAUGGGGGACCCCCAACUCAAGGCCAAGGACUGGGCGUAUCGGAUGCUCAUAACACCCC: 0.717
GCCUAUCUUUUCCCCUUACAUAUGUCUUUGUCCUUCUUUCCCAAAGAUGUCAAAUACAAUGCAGCAUUUUCAUCUUGUUCUUUCAAAGUUAAUAGUCUAUUAUUUUAUGU: 1.27
AAGAACUGAUUGUGACUUGUAGUUCUUCUCUAGAGGAUGCUGCUAGAACGUGGUUUUGCUUUGCAUUUUGUAGUUCUUCCCGUCAGUGCUGUGUGUAGUCCUGCUUCUUC: 1.29
GAUAUGGCCCUCAUCGUCGUGUAAUGUUUGUGCACCUCCCUGCUGUGCAGGCAGCUUGGAGUGCAGGCUGUGUUGCUGGGAGUGCGCUGGCUGCUUAGAAACCACGAGAC: 0.823
UAAGUAACUGAUAACUGAGAUUCGGGACCAUGUCUUGUUUGCCAUUGUGCCCUUGGAAUUUAAUACAAGUGCCUAACCCACAGUAGGGUUGAUUGAUUCACUGAUUAGUU: 0.741

Series 3 — technique: protein binding microarray; molecule type: double-stranded DNA, one strand shown; sample: in vitro; concentration: not given; relative to: not given; direction: higher = stronger binding; measurement: E-score
Target: Histone acetyltransferase KAT6A, both winged helices, GST fusion (KAT6A, Homo sapiens, UniProt Q92794, residues 1-181)
Notes: 8-mer, flanks averaged, mean of 2 arrays, mostly near background
Residues (chain): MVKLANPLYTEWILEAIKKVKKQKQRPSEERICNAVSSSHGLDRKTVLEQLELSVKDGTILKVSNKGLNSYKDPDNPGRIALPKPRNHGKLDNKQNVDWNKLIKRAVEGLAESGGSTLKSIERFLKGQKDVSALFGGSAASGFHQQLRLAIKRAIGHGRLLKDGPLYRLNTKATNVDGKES
ACAAAAAT: -0.0512
AGAGTCCA: -0.195
TCGGGCCA: 0.0282
CTCTAGAA: -0.178
AGCTGAAA: 0.0034
AAATAGTC: -0.0324
CTTTCGAA: -0.0483
GCCAACGC: 0.204
CAGAATCG: 0.103
GAAGGTCA: -0.187
TATACTAA: -0.248
AGCAACTA: -0.0423
TGATCGAA: -0.0236
CAATCCGG: 0.133
CTCTACCA: -0.184
AACAGGTA: -0.125
AAGGTCAT: -0.0997
AGTATTTC: -0.0475
AACGATGT: -0.0587
GGATATGA: 0.0153
CATATATA: -0.0566
AATTAGTC: -0.0388
CGATGTAC: 0.00326
AAGCAGGC: -0.0753
TCCGTAAA: 0.21

Series 4 — technique: DHFR PCA, deep sequencing; sample: yeast; together with: (+)-ABA 1.4 µM; relative to: wild-type fitted maximum; direction: higher = stronger binding; measurement: relative binding score
Target: ABI1, truncated, D143A, DHFR fusion (Arabidopsis thaliana)
Notes: methotrexate growth selection, single substitutions
Parent: PYL1, truncated, DHFR fusion (Arabidopsis thaliana); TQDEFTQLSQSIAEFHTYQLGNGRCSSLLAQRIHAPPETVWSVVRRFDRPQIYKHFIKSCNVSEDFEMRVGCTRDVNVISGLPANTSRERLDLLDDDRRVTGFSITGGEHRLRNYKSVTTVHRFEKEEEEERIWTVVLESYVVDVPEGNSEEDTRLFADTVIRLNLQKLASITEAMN; partner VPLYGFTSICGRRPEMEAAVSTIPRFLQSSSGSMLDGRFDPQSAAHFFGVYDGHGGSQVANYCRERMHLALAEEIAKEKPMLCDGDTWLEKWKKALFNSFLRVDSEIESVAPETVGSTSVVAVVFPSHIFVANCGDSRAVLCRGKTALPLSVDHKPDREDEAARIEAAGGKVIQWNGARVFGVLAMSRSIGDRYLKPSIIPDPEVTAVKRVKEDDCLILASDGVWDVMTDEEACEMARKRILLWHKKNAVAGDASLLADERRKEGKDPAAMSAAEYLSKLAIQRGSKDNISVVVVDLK
F5S: 32.3%
F103W: -1.05%
S59Q: 27.8%
R32K: 58.6%
Y115R: -2.65%
P83D: 3.75%
N165M: 15%
D3M: 26.9%
G102P: 6.12%
I105R: -0.638%
T173W: -5.82%
S80I: -0.331%
D144E: 12%
L20W: 30.3%
I162V: 73.1%
E131D: 77.1%
F103S: -2.55%
T106E: 35.3%
V78S: 1.62%
F15H: 46%
L138D: 2.05%
E67T: 53%
E131T: 73%

Series 5 — target: NFIL3, bZIP domain (human); technique: DHFR protein complementation; sample: yeast; relative to: wild-type JUN-FOS pair; direction: higher = stronger binding; measurement: binding fitness
Notes: single substitutions, most at no-binding floor
Parent: JUN, bZIP domain (human); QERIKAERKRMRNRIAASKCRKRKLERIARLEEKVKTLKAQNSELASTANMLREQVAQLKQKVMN; partner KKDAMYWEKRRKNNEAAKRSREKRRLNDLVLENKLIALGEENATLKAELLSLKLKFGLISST
L38I: -1.53 natural log
L38R: -1.46 natural log
E44F: -1.38 natural log
M51Y: -1.51 natural log
A46Y: -1.01 natural log
A49K: -1.45 natural log
A46M: -1.15 natural log
Q58V: -1.4 natural log
E44N: -1.47 natural log
T37N: -1.44 natural log
Q41F: -1.49 natural log
V56H: -1.58 natural log
V56P: -1.51 natural log
L31F: -1.27 natural log
E32D: -1.36 natural log
K36I: -1.33 natural log
A57K: -1.45 natural log
V35L: -1.25 natural log
Q41T: -1.49 natural log

Series 6 — target: CCND3, cyclin fold, Cln2 fusion (human); technique: yeast growth competition, sequencing; sample: yeast; notes: weak parent motif; relative to: not given; direction: higher = stronger binding; measurement: normalised enrichment score
Parent: MICAL3 docking peptide (human); LQLRRQLSFSEDS
E11H: -0.0151
E11I: -0.442
L3R: 0.52
D12M: 0.199
L3A: 0.384
E11D: -0.188
R4D: -0.118
L3G: 0.375
S8F: 0.601
S8G: 0.0483
L3Y: -0.0118
R5I: 0.14
S10A: -0.151
F9D: -0.0276
Q6K: -0.202
Q2P: 0.145
F9G: -0.0995
E11V: 0.0574
D12Y: 0.0753
F9M: -0.192
S10F: 0.275
S10I: -0.139
Q2T: -0.241
Q6N: 0.00823
